Experimental data pooled from the literature.
Parts stem from different laboratories: compare values within a part only.

Block 1
Target: Interferon regulatory factor 5, full length, phosphomimetic (IRF5, Homo sapiens, UniProt Q13568-2, residues 1-514, K96S/S451D/S453D/S456D/S462D)
Technique: protein-binding microarray
Form: double-stranded DNA, one strand shown
Medium: in vitro
Concentration: 250 nM
Notes: 60-bp whole probe
Added: salmon DNA 0.4 mg/ml
Relative to: random background probes
Reading: higher = stronger binding
`GCCTAGCACTTAGGACTGGGGACTGGGTTCGTGCTAGTCTTGATTCGCTTGACGCTGCTG` has a log fluorescence of -0.484 z-score.
The log fluorescence of `GCCTAGCACTTAGGACTGGACACTCGGTTAGTGCTAGTCTTGATTCGCTTGACGCTGCTG` is reported as -0.314 z-score.
`GCCTAGCACTCCTAATTCTCTTTTCACTTGTGCTAGGTCTTGATTCGCTTGACGCTGCTG` gave a log fluorescence of 1.66 z-score.

Block 2
Target: Histone acetyltransferase KAT6A, both winged helices, GST fusion (KAT6A, Homo sapiens, UniProt Q92794, residues 1-181)
Technique: protein binding microarray
Form: double-stranded DNA, one strand shown
Medium: in vitro
Concentration: not given
Notes: 8-mer, flanks averaged, mean of 2 arrays, mostly near background
Relative to: not given
Reading: higher = stronger binding
Target sequence (chain): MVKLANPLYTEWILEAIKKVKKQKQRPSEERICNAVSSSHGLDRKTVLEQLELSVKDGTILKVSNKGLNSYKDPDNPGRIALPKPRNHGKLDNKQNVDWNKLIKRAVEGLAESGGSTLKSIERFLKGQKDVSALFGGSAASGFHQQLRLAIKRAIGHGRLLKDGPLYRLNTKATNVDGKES
`TCTGTGAA` has an E-score of -0.0337.
`ACTTCCGA` has an E-score of 0.000335.
The E-score of `AGGATGCA` is reported as -0.122.
`CCACTGAG` has an E-score of -0.167.

Mixed results
SALL4 full length isoform A: Sal-like protein 4, full length isoform A (SALL4, Homo sapiens, UniProt Q9UJQ4, residues 1-1053)
Sequence of UniProt Q9UJQ4 (whole entry, looked up): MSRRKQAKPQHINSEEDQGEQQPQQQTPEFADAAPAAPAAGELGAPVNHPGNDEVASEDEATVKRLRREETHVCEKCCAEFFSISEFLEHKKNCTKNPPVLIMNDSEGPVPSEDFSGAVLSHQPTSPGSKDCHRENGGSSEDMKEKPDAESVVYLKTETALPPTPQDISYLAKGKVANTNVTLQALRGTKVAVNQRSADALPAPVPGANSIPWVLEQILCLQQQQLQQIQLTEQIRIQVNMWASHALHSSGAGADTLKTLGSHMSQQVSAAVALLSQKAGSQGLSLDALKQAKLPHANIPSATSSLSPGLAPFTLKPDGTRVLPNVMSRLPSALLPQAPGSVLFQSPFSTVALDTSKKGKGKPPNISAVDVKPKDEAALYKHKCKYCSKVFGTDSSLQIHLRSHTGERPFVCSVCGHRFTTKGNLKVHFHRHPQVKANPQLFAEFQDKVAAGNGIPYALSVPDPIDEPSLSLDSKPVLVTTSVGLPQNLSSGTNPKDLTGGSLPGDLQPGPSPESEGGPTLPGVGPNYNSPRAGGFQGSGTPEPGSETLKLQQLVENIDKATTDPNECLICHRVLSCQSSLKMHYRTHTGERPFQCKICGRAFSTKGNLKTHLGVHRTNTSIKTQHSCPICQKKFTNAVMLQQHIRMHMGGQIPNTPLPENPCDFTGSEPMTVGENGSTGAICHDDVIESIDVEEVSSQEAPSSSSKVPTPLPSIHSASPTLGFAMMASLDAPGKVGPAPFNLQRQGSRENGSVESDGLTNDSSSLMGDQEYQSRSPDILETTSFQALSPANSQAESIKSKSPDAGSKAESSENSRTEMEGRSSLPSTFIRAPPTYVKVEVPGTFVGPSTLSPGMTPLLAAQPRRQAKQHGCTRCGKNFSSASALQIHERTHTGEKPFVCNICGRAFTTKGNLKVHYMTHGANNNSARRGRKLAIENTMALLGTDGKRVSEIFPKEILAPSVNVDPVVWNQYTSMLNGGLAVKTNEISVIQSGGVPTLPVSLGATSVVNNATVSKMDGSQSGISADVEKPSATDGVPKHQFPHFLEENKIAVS
For `ACAAGGAT`, the E-score was 0.23 (SALL4 full length isoform A; universal PBM; double-stranded DNA, one strand shown, in vitro; 600 nM, 8-mer, flanks averaged, mean of replicates; higher = stronger binding).
For `PhoQ, residues 284 288 289 292 302 303 SSCLAV`, the fold induction was 15.4 (PhoP, residues 12 14 15 18 19 SFCSL (Escherichia coli, UniProt P23836); Sort-seq, measured: YFP reporter; E. coli; PhoQ-PhoP variant library, added: 10 µM Mg2+; relative to: high Mg2+ state, higher = stronger signaling).
For `ACTATCAG`, the E-score was 0.0273 (SALL4 full length isoform A; universal PBM; double-stranded DNA, one strand shown, in vitro; 600 nM, 8-mer, flanks averaged, mean of replicates; higher = stronger binding).

Excerpt of the above (block 2):
The E-score of `AGGATGCA` is reported as -0.122.
